Published values pooled from the literature.
Protocols differ between the studies behind these lines.
Cell line: L02
Effect on: cell growth or viability

Structure (SMILES)	assay	setting	IC50 [µM]
O=C(/C=C/c1ccc(O)cc1)OCCCC[P+](c1ccccc1)(c1ccccc1)c1ccccc1	SRB	24 h	186
Clc1cc2nc(-c3cc4cc5c(cc4nc3Cl)OCO5)[nH]c2cc1Cl	MTT	48 h	> 100
O=S(=O)([O-])[O-].[Cu+2].c1ccc(-c2nnc(-c3ccc4c(c3)OCO4)[nH]2)nc1	MTT	24 h	6
COc1ccc(S(=O)(=O)Nc2ccc(CCCC(=O)O[C@H]3c4cc5c(cc4[C@@H](c4cc(OC)c(OC)c(OC)c4)[C@H]4C(=O)OC[C@@H]43)OCO5)cc2)cc1	CCK-8	24 h	> 100
O=[N+]([O-])[O-].O=[N+]([O-])[O-].[Cu+2].[Cu+2].c1ccc(-c2nc(-c3ccc4c(c3)OCO4)n[n-]2)nc1.c1ccc(-c2nc(-c3ccc4c(c3)OCO4)n[n-]2)nc1	MTT	24 h	3.96
O=C(/C=C/c1ccc(O)c(O)c1)OCCCC[P+](c1ccccc1)(c1ccccc1)c1ccccc1	SRB	24 h	119
COc1ccc(-c2nnc(-c3ccccn3)[nH]2)cc1OC	MTT	24 h	> 100
NC(=S)c1ccc(O)cc1	CCK-8	72 h	> 200
Cc1cc2nc(-c3cc4cc5c(cc4nc3Cl)OCO5)[nH]c2cc1C	MTT	48 h	> 100
Cc1cc(CN2CCC(CCCCCCC(=O)NO)CC2)cc(C)c1-c1ncn(C)c1-c1ccc(C#N)c2ccccc12	MTT	72 h	> 10
COc1ccc2nc(Cl)c(-c3nc4ccccc4[nH]3)cc2c1	MTT	48 h	> 100
COc1cc(/C=C/C(=O)OCCCC[P+](c2ccccc2)(c2ccccc2)c2ccccc2)ccc1O	SRB	24 h	89.7
Fc1ccc2[nH]c(-c3cc4cc5c(cc4nc3Cl)OCO5)nc2c1	MTT	48 h	> 100
CC1(C)CC[C@@]2(CO)C(=C3C=C[C@@H]4[C@@]5(C)CC[C@H](O)[C@@](C)(CO)[C@@H]5CC[C@@]4(C)[C@]3(C)C[C@@H]2O)C1	–	24 h	79.8
